Published values collected from several papers.
Lines come from different studies, so protocols differ. Values joined by “and” are separate records of one study, mostly repeats; a detail may differ. Numbers after ± are the reported error. Converted amounts (≈) assume the structure as drawn.

| SMILES | target or system | assay | test system | conditions | scale | endpoint | value |
| --- | --- | --- | --- | --- | --- | --- | --- |
| C#CC[C@@H](N)C(=O)N[C@H](CO)C(=O)N[C@@H](C(=O)N[C@H](CO)C(=O)N[C@H](CCC(=O)O)C(=O)N[C@@H](C(=O)N[C@H](CCC(N)=O)C(=O)N[C@H](CC(C)C)C(=O)N[C@H](CCSC)C(=O)N[C@H](Cc1c[nH]cn1)C(=O)N[C@H](CC(N)=O)C(=O)N[C@H](CC(C)C)C(=O)NCC(=O)N[C@H](CCCCN)C(=O)N[C@H](Cc1c[nH]cn1)C(=O)N[C@H](CC(C)C)C(=O)N[C@H](CC(N)=O)C(=O)N[C@H](CO)C(=O)N[C@H](CCSC)C(=O)N[C@H](CCC(=O)O)C(=O)N[C@H](CCCNC(=N)N)C(=O)N[C@@H](C(=O)N[C@H](Cc1ccc(O)cc1)C(=O)N[C@H](C)C(=O)N[C@H](CC(C)C)C(=O)N[C@H](CCCNC(=N)N)C(=O)N[C@H](Cc1ccccc1)C(=O)N[C@H](Cc1c[nH]cn1)C(=O)N[C@H](CC(C)C)C(=O)N[C@H](CCC(N)=O)C(=O)N[C@H](CC(C)C)C(=O)N[C@@H](C(N)=O)C(C)C)C(C)C)[C@H](C)CC)C(C)C | hemagglutinin influenza A/California/07/2009 H1N1 | – | – | – | – | IC50 | 153 µM |
| CN1CC[C@]23c4c5ccc(O)c4O[C@H]2[C@@H](O)C=C[C@H]3[C@H]1C5 | – | hot water tail withdrawal test | STZ-diabetic Sprague-Dawley rats | dose not given | – | time to peak effect | 30 to 45 min |
| CCCCC1(CCCC)CN(c2ccccc2)c2cc(SC)c(OCC(=O)N[C@@H](C(=O)NCC(=O)O)c3ccccc3)cc2S(=O)(=O)C1 | – | refers to: HDL cholesterol | human, serum | 2.5 mg once daily, day 14 | – | serum HDL-C | 52.1 mg/dL |
| O=[N+]([O-])c1cc2c(ccc3c4cc([N+](=O)[O-])oc4ccc23)o1 | Mycobacterium bovis BCG | – | 1173 P2 | – | – | MIC90 | 0.5 µg/mL (≈ 1.68 µM) |
| Cc1cn(-c2cc(NC(=O)c3ccc(C)c(Nc4nccc(-c5cccnc5)n4)c3)cc(C(F)(F)F)c2)cn1 | – | – | Alzheimer's disease patients | 150 mg, 6 months, group mean | direction not given | ADCS-ADL score | 56.2 ± 12.5 |
| CCN(c1nc(N)c(C(=O)NC(=N)N)nc1Cl)C(C)C | del45 myoblasts | fluorescence, refers to: fluorescent dextran | – | 2 h | – | dextran uptake | 81.7% and 52.7% and 79.5% |
| CN1C(=O)C(C2C3=C(CC(C)(C)CC3=O)Oc3c(O)cccc32)C(=O)N(C)C1=O (centres unmarked) | 3T3-L1 adipocytes | qPCR, refers to: HSL | – | IC20, 14 days | reference: untreated mature adipocytes | mRNA level | increased |
| COc1c(CCC[P+](c2ccccc2)(c2ccccc2)c2ccccc2)cc2c(c1OC)OCO2.[I-] | UACC-62 | SRB | – | – | – | GI50 | -6.25 log M |
| C[C@]1(CO)Cc2ncn(-c3ccc(C#N)c(Cl)c3)c2C(=O)O1 | – | aldosterone synthesis, inhibitor, refers to: potassium | healthy Japanese adults, urine | 80 mg, 0-24 h after first dose, multiple rising dose | – | urinary excretion | 25.9 mmol |
| CCCCCc1cc(O)c2c(c1)OC(C)(C)[C@@H]1CCC(C)=C[C@@H]21 | human sperm | BCECF | – | 10 µM | – | intracellular pH | no effect |
| O=C(Cc1cccc(Br)c1)N[C@H]1CCOC1=O | ExpR1 (Pectobacterium carotovorum) | cellulase activity, antagonist | Pectobacterium carotovorum, single-ExpR1 strain | 5 µM, 4 h, together with: OHHL 5 µM | – | inhibition | 73% |
| CC[C@@H](NC(=O)CNC(=O)[C@@H](CC(C)C)NC(=O)CNC(=O)[C@H](N)CCC(N)=O)C(=O)N[C@H](CC(=O)O)C(=O)N[C@H](CCC(=O)O)C(=O)N[C@H](CCSC)C(=O)N[C@H](CC(C)C)C(=O)N[C@H](CCC(N)=O)C(=O)NCC(=O)N[C@H](Cc1ccccc1)C(=O)N[C@H](C)C(=O)N[C@@H](C(=O)N[C@H](C)C(=O)N[C@@H](C(=O)N[C@H](CCCCN)C(=O)N[C@H](CCSC)C(=O)NCC(=O)N[C@H](C)C(=O)N[C@H](Cc1ccc(O)cc1)C(=O)N[C@H](CCCCN)C(=O)N[C@H](C)C(=O)N[C@H](Cc1c[nH]c2ccccc12)C(=O)O)C(C)C)C(C)C | hemagglutinin influenza A/California/07/2009 H1N1 | – | – | – | – | IC50 | 24 µM |
| COCCC1=C(C(=O)OC)C(c2ccc(Cl)cc2)C2=C(CC(c3cc(OC)c(OC)c(OC)c3)CC2=O)N1 (single isomer, unassigned) | Plasmodium berghei | parasitaemia | KBG-173, mouse | oral, 50 mg/kg, day 6 post-infection, PEG400 vehicle, Thompson test | reference: vehicle | inhibition | > 75% and 77.6% |
| N=C(N)c1ccc(OCc2ccc(-c3ccccc3)cc2COc2ccc(C(=N)N)cc2)cc1 | Escherichia coli | checkerboard | mcr-3 polymyxin-resistant | concentration not given, together with: rifampicin | – | MIC of compound in combination | 3.13 µg/mL |
| CN1CCN(C2(CNC3CCN(c4cccc(-c5cc6cc(F)ccc6[nH]5)c4)CC3)CCC2)CC1 | Hs-578T | – | – | – | – | GI50 | 2.22 µM |
| COc1ccc(-n2nc(C(C)=O)s/c2=N\N=C(/C)c2ccc(NC(C)=O)cc2)cc1 | MCF7 | – | – | 0.078 µM | – | toxicity | 53.9% |
| O=C1CCP(=S)(c2ccccc2)CC1 | PC-3 | ELISA | – | concentration not given, at IC50 | reference: untreated | IL-6 reduction | 96.8% |
| COc1cc(CCC[P+](c2ccccc2)(c2ccccc2)c2ccccc2)c(OC)c2c1OCO2.[I-] | SK-MEL-2 | SRB | – | – | – | GI50 | -5.72 log M |
| CC[C@H](C)[C@@H]1NC(=O)[C@@H]2CCCN2C(=O)[C@H](CC(C)C)NC(=O)[C@H](CC(C)C)NC(=O)CNC(=O)[C@@H](NC(=O)[C@@H](NC(=O)[C@H](CC(=O)O)NC(=O)CNC(=O)[C@@H](NC(=O)[C@H](C)NC(=O)CNC(=O)[C@H](CCCCN)NC(=O)[C@H](CC(C)C)NC(=O)[C@H](CC(C)C)NC(=O)[C@H](CCCCN)NC(=O)CNC(=O)[C@@H](NC(=O)[C@@H](N)CC(C)C)C(C)C)C(C)C)C(C)C)CSSC[C@@H](C(=O)O)NC1=O | – | RNA-seq, refers to: Spn mRNA | mouse traumatic brain injury, frontal cortex and hippocampus | dose not given | reference: TBI plus compound vs TBI | log2 fold change | -1.86 |
| O=C(Cc1cc(C(F)(F)F)cc(C(F)(F)F)c1)NC1CCOC1=O (centres unmarked) | ExpR1 (Pectobacterium carotovorum) | cellulase activity, agonist | Pectobacterium carotovorum, single-ExpR1 strain | 200 µM, 4 h | reference: OHHL | activation | 9% |
| C[C@H]1O[C@@H](O[C@H]2CC[C@@]3(C)[C@@H](CC[C@]4(C)[C@@H]3C=C[C@]35OC[C@@]6(CCC(C)(C)C[C@H]63)[C@@H](O)C[C@]54C)[C@]2(C)CO)[C@H](O)[C@@H](O[C@@H]2O[C@H](CO)[C@@H](O)[C@H](O)[C@H]2O)[C@H]1O | – | – | mouse, ethanol-fed, AAV8-TBG-Null | dose not given, high dose | – | liver to body weight ratio | 4.6% and 3.78% and 4.49% and 4.95% and 4.28% and 4.37% |
| N.N.[Cl][Pt][Cl] | A2780 | cell viability, MTT | – | 48 h | – | IC50 | 8.08 µM |
| O=C(Cc1cccc([N+](=O)[O-])c1)N[C@H]1CCOC1=O | ExpR1 (Pectobacterium carotovorum) | cellulase activity, antagonist | Pectobacterium carotovorum, single-ExpR1 strain | 5 µM, 4 h, together with: OHHL 5 µM | – | inhibition | -15% |

A few entries again:
| SMILES | target or system | assay | test system | conditions | scale | endpoint | value |
| --- | --- | --- | --- | --- | --- | --- | --- |
| O=C1CCP(=S)(c2ccccc2)CC1 | PC-3 | ELISA | – | concentration not given, at IC50 | reference: untreated | IL-6 reduction | 96.8% |
| O=C(Cc1cccc([N+](=O)[O-])c1)N[C@H]1CCOC1=O | ExpR1 (Pectobacterium carotovorum) | cellulase activity, antagonist | Pectobacterium carotovorum, single-ExpR1 strain | 5 µM, 4 h, together with: OHHL 5 µM | – | inhibition | -15% |
| C[C@H]1O[C@@H](O[C@H]2CC[C@@]3(C)[C@@H](CC[C@]4(C)[C@@H]3C=C[C@]35OC[C@@]6(CCC(C)(C)C[C@H]63)[C@@H](O)C[C@]54C)[C@]2(C)CO)[C@H](O)[C@@H](O[C@@H]2O[C@H](CO)[C@@H](O)[C@H](O)[C@H]2O)[C@H]1O | – | – | mouse, ethanol-fed, AAV8-TBG-Null | dose not given, high dose | – | liver to body weight ratio | 4.6% and 3.78% and 4.49% and 4.95% and 4.28% and 4.37% |
